# Measured values from different studies.
# Each line is one published result; not all experiments were run side by side. Numbers after ± are the reported error.
# sdiA: Regulatory protein SdiA (sdiA, Escherichia coli, UniProt P07026)
# Chain of UniProt P07026 (whole entry, looked up): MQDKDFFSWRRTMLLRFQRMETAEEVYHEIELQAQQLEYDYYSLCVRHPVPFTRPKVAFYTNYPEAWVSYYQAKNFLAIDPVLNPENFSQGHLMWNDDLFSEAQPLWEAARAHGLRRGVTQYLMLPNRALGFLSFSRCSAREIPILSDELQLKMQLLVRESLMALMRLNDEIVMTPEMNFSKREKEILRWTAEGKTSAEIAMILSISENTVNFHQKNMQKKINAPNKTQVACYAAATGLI
# Chain of UniProt P41586 (whole entry, unmodified, looked up): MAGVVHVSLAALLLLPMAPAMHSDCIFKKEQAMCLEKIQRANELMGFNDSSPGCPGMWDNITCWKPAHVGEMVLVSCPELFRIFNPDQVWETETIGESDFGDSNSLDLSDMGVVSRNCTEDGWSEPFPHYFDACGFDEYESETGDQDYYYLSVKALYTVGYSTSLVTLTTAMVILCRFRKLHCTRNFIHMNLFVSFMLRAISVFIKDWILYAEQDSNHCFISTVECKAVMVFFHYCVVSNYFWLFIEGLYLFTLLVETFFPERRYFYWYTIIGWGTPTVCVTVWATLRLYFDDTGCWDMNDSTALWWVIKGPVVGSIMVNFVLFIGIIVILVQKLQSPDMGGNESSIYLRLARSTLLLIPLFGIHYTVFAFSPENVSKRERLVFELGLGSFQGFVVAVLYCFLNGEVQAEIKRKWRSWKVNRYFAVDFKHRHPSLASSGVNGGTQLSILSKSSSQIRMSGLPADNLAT
# Chain of UniProt P41143 (whole entry, unmodified, looked up): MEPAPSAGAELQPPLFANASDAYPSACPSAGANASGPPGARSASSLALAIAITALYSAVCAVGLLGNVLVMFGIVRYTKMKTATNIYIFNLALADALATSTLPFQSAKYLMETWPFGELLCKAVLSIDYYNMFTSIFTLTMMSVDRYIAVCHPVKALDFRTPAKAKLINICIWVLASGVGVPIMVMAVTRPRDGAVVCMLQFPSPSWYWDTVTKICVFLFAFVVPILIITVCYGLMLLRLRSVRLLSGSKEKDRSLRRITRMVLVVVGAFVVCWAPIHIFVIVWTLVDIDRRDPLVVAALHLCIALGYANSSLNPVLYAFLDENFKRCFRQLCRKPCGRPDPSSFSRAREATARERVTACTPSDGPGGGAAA
# Chain of UniProt Q9H7M9 (whole entry, looked up): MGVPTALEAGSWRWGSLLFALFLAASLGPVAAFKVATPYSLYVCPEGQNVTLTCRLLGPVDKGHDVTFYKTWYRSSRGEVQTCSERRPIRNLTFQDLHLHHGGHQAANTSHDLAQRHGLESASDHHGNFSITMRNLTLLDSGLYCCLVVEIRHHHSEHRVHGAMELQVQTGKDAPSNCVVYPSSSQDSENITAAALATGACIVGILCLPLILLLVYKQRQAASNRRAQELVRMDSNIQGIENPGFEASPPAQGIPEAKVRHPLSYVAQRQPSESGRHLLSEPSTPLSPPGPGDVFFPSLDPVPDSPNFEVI
# Chain of UniProt Q16539 (whole entry, looked up): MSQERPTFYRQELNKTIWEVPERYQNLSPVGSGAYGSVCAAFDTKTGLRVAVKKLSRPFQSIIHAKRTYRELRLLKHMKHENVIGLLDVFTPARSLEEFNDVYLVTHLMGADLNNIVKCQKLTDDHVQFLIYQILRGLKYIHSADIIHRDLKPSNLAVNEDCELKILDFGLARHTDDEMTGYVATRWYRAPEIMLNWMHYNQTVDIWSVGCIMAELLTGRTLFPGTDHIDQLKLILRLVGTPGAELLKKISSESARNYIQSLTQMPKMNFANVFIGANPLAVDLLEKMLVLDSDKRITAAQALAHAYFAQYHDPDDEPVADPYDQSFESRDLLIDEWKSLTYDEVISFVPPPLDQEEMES
# Chain of UniProt P41595 (whole entry, looked up): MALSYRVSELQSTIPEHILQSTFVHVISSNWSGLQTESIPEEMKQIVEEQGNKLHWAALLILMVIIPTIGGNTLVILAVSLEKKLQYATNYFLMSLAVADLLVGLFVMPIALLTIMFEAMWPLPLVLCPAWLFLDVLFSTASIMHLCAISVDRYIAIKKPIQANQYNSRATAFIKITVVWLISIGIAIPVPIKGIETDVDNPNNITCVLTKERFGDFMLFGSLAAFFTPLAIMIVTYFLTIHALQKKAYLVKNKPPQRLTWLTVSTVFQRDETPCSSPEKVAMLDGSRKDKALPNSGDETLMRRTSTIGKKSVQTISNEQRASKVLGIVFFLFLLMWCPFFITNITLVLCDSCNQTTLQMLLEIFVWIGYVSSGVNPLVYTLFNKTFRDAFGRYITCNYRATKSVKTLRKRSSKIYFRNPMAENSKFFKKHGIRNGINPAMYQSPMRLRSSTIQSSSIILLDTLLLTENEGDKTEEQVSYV
# Chain of UniProt O60674 (whole entry, looked up): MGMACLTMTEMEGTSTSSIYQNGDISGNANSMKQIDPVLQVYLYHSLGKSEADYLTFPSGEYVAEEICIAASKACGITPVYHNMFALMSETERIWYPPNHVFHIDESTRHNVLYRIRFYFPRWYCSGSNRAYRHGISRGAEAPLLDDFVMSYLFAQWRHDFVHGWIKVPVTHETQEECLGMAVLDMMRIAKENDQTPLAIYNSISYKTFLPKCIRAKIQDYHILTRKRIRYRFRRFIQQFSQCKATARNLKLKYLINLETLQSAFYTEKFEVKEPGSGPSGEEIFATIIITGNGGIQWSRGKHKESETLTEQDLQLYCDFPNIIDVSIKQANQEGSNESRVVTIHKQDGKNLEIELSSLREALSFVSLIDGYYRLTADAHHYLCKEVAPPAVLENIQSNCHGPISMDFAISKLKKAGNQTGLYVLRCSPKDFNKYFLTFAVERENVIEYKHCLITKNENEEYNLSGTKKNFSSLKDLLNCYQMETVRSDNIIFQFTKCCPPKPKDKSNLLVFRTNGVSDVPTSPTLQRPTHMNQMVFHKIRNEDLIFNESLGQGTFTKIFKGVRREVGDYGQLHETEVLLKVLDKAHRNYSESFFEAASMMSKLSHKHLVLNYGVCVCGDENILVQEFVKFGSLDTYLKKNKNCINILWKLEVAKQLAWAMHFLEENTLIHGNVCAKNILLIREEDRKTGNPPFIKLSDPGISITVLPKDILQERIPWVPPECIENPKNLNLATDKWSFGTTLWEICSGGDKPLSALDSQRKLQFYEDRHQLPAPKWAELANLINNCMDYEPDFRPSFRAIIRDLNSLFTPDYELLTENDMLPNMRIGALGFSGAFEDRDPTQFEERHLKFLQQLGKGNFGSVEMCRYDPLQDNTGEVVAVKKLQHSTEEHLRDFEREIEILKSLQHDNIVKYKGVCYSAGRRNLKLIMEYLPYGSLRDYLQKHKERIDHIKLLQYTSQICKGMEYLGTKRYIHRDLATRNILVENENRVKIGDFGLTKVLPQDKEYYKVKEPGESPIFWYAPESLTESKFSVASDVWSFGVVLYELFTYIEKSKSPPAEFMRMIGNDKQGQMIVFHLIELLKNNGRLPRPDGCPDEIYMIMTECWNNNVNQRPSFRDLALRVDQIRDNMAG
# Chain of UniProt P50391 (whole entry, looked up): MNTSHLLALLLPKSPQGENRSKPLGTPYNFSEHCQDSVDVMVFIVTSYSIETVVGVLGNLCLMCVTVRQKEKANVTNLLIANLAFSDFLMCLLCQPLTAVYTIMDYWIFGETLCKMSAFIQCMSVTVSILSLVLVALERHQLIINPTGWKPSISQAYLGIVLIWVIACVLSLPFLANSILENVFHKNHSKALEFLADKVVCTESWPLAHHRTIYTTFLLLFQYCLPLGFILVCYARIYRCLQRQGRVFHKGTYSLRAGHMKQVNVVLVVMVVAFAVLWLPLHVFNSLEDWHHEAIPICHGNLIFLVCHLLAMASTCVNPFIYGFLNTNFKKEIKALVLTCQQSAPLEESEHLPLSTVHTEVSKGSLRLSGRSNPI
# Chain of UniProt P21554 (whole entry, unmodified, looked up): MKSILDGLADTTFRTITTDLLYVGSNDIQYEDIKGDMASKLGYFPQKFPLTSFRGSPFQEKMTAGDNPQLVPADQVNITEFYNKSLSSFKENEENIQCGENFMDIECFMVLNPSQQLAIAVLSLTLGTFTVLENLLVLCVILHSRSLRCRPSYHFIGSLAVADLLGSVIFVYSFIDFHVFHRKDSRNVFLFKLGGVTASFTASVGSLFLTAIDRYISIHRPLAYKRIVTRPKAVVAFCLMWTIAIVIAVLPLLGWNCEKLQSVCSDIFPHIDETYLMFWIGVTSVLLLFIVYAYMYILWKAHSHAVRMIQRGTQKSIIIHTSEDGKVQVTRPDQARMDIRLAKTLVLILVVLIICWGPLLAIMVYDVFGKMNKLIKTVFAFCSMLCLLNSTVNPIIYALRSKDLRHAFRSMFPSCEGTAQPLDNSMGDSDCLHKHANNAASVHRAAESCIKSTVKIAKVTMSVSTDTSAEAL
# Chain of UniProt P41146 (whole entry, looked up): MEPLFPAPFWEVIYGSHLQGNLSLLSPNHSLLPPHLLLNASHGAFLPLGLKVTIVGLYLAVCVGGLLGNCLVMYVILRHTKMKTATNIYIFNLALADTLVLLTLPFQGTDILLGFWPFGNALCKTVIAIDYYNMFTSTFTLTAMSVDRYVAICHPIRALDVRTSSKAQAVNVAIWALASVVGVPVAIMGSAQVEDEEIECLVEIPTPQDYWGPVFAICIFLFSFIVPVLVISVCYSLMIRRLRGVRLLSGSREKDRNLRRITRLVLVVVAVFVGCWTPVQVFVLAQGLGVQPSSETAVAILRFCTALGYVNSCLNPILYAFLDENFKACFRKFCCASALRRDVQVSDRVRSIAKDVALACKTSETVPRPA
SMILES,target or system,test,test system,setting,how to read,endpoint,value
Cc1cccc(CC(=O)N[C@H]2CCOC2=O)c1,sdiA,,,,,EC50,3.44 nM
CS(C)(=O)=Nc1ccc(-c2ccc(-c3nc4cc(O[C@@H]5CO[C@H]6[C@@H]5OC[C@H]6O)[nH]c4cc3F)cc2)cc1,"Nociceptin receptor (OPRL1, Homo sapiens, UniProt P41146)","calcium signal, antagonist",,10 µM,,inhibition,-1%
CC(C)(C)C(=O)OCOP(=O)(OCOC(=O)C(C)(C)C)C1CCCN(O)C1=O (stereo not drawn),UACC-257,,,,,log GI50,-5.92 log M
CC(=O)N[C@@H](CCCNC(=N)N)C(=O)N[C@@H](Cc1ccc(O)cc1)C(=O)N[C@@H](CCCNC(=N)N)C(=O)N[C@@H](CC(C)C)C(=O)N[C@@H](CCCNC(=N)NC(=O)NCCCCN)C(=O)N[C@@H](Cc1ccc(O)cc1)C(N)=O,"NPY4R (Homo sapiens, UniProt P50391)","β-arrestin-1 recruitment, antagonist",HEK293T-ARRB1,together with: 3 nM human pancreatic polypeptide,,Kb,3590 ± 429 nM
O[C@H]1[C@H](n2cnc3c(N[C@@H](C4CCC4)C4CC4)nc(I)nc32)[C@H]2C[C@@]2(C(F)F)[C@H]1O,"HTR2B (Homo sapiens, UniProt P41595)","calcium signal, antagonist",,,,Kb,3.3 nM
CSCC[C@H](NC(=O)[C@H](CCC(N)=O)NC(=O)[C@H](CCCCN)NC(=O)[C@H](CCCNC(=N)N)NC(=O)[C@H](Cc1ccc(O)cc1)NC(=O)[C@H](CCCNC(=N)N)NC(=O)[C@H](CO)NC(=O)[C@H](Cc1ccc(O)cc1)NC(=O)[C@H](CO)NC(=O)[C@H](CC(=O)O)NC(=O)[C@@H](NC(=O)[C@@H](N)Cc1ccccc1)[C@@H](C)O)C(=O)N[C@@H](C)C(=O)N[C@H](C(=O)N[C@@H](CCCCN)C(=O)N[C@@H](CCCCN)C(=O)N[C@@H](Cc1ccc(O)cc1)C(=O)N[C@@H](CC(C)C)C(=O)N[C@@H](C)C(=O)N[C@@H](C)C(=O)N[C@H](C(=O)N[C@@H](CC(C)C)C(=O)NCC(=O)N[C@@H](CCCCN)C(=O)N[C@@H](CCCNC(=N)N)C(=O)N[C@@H](Cc1ccc(O)cc1)C(=O)N[C@@H](CCCCN)C(=O)N[C@@H](CCC(N)=O)C(=O)N[C@@H](CCCNC(=N)N)C(=O)N[C@H](C(=O)N[C@@H](CCCCN)C(=O)N[C@@H](CC(N)=O)C(=O)N[C@@H](CCCCn1cc(C[C@H](NC(=O)CNC(=O)[C@H](CO)NC(=O)[C@H](CCCNC(=N)N)NC(=O)[C@H](CO)NC(=O)[C@H](CC(C)C)NC(=O)[C@H](CC(C)C)NC(=O)CNC(=O)[C@H](C)NC(=O)[C@H](CC(C)C)NC(=O)[C@H](CCCNC(=N)N)NC(=O)[C@H](Cc2c[nH]cn2)NC(=O)[C@@H](NC(=O)[C@@H](N)C(C)C)[C@@H](C)O)C(=O)N[C@H](C(=O)N[C@H](C(=O)N[C@@H](CCCCN)C(=O)N[C@@H](CC(N)=O)C(=O)N[C@@H](CC(N)=O)C(=O)N[C@@H](Cc2ccccc2)C(=O)N[C@H](C(=O)N2CCC[C@H]2C(=O)N[C@H](C(=O)N[C@@H](CC(N)=O)C(=O)N[C@H](C(=O)NCC(=O)N[C@@H](CO)C(=O)N[C@@H](CCCCN)C(=O)N[C@@H](C)C(=O)N[C@@H](Cc2ccccc2)C(N)=O)C(C)C)[C@@H](C)O)C(C)C)C(C)C)C(C)C)nn1)C(N)=O)C(C)C)C(C)C)C(C)C,"ADCYAP1R1 (Homo sapiens, UniProt P41586, del89-109)","cAMP accumulation, antagonist",,together with: VIP,,Kb,14.1 nM
O=C(Cc1cccc([N+](=O)[O-])c1)N[C@H]1CCOC1=O,sdiA,,,,,EC50,1.6 nM
CCN(CC)C(=O)c1ccc(C(c2cccc(O)c2)N2CC(C)N(Cc3ccccc3)CC2C)cc1 (stereo not drawn),"OPRD1 (Homo sapiens, UniProt P41143, G268V)",,,,,Ki,0.2 ± 0.04 nM
CC(C)C[C@H](NC(=O)[C@@H](NC(=O)CNC(=O)[C@H](Cc1ccccc1)NC(=O)[C@H](CCCCN)NC(=O)[C@H](Cc1ccc(O)cc1)NC(=O)[C@H](C)N)[C@@H](C)O)C(=O)N[C@@H](CCC(N)=O)C(=O)N1CCC[C@H]1C(=O)N[C@@H](Cc1ccccc1)C(=O)N[C@H](C(=O)N[C@@H](Cc1ccc(O)cc1)C(=O)O)[C@@H](C)O,"V-type immunoglobulin domain-containing suppressor of T-cell activation, IgV domain (VSIR, Homo sapiens, UniProt Q9H7M9)",microscale thermophoresis,,concentration not given,,binding,no binding
C=CC(=O)Nc1ccc(F)c(-c2ncnc3[nH]cc(C(=O)OCC)c23)c1,"JAK2 (Homo sapiens, UniProt O60674)","inhibitor, kinase",,together with: ATP 100 µM,,IC50,8680 nM
CSCC[C@H](NC(=O)[C@H](CCC(N)=O)NC(=O)[C@H](CCCCN)NC(=O)[C@H](CCCNC(=N)N)NC(=O)[C@H](Cc1ccc(O)cc1)NC(=O)[C@H](CCCNC(=N)N)NC(=O)[C@H](CO)NC(=O)[C@H](Cc1ccc(O)cc1)NC(=O)[C@H](CO)NC(=O)[C@H](CC(=O)O)NC(=O)[C@@H](NC(=O)[C@@H](N)Cc1ccccc1)[C@@H](C)O)C(=O)N[C@@H](C)C(=O)N[C@H](C(=O)N[C@@H](CCCCN)C(=O)N[C@@H](CCCCn1cc(C[C@H](NC(=O)CNC(=O)[C@H](CO)NC(=O)[C@H](CCCNC(=N)N)NC(=O)[C@H](CO)NC(=O)[C@H](CC(C)C)NC(=O)[C@H](CC(C)C)NC(=O)CNC(=O)[C@H](C)NC(=O)[C@H](CC(C)C)NC(=O)[C@H](CCCNC(=N)N)NC(=O)[C@H](Cc2c[nH]cn2)NC(=O)[C@@H](NC(=O)[C@@H](N)C(C)C)[C@@H](C)O)C(=O)N[C@H](C(=O)N[C@H](C(=O)N[C@@H](CCCCN)C(=O)N[C@@H](CC(N)=O)C(=O)N[C@@H](CC(N)=O)C(=O)N[C@@H](Cc2ccccc2)C(=O)N[C@H](C(=O)N2CCC[C@H]2C(=O)N[C@H](C(=O)N[C@@H](CC(N)=O)C(=O)N[C@H](C(=O)NCC(=O)N[C@@H](CO)C(=O)N[C@@H](CCCCN)C(=O)N[C@@H](C)C(=O)N[C@@H](Cc2ccccc2)C(N)=O)C(C)C)[C@@H](C)O)C(C)C)C(C)C)C(C)C)nn1)C(=O)N[C@@H](Cc1ccc(O)cc1)C(=O)N[C@@H](CC(C)C)C(=O)N[C@@H](C)C(=O)N[C@@H](C)C(=O)N[C@H](C(=O)N[C@@H](CC(C)C)C(=O)NCC(=O)N[C@@H](CCCCN)C(=O)N[C@@H](CCCNC(=N)N)C(=O)N[C@@H](Cc1ccc(O)cc1)C(=O)N[C@@H](CCCCN)C(=O)N[C@@H](CCC(N)=O)C(=O)N[C@@H](CCCNC(=N)N)C(=O)N[C@H](C(=O)N[C@@H](CCCCN)C(=O)N[C@@H](CC(N)=O)C(=O)N[C@@H](CCCCN)C(N)=O)C(C)C)C(C)C)C(C)C,"ADCYAP1R1 (Homo sapiens, UniProt P41586)","cAMP accumulation, antagonist",COS-7 transfected,"from pA2, single concentration, together with: PACAP-38",,Kb,2570 nM
Cc1ccc2c(C(C[N+](=O)[O-])c3cccs3)c(-c3ccccc3)[nH]c2c1 (stereo not drawn),"CNR1 (Homo sapiens, UniProt P21554, Y397F)","G protein activation, agonist, BRET",,,,EC50,70 nM
CN(C)[C@H]1C[C@@]23CC[C@@]4(O2)C(=CC[C@]2(C)[C@@H](c5ccc6ccncc6c5)CC[C@H]24)C=C3[C@@H](O)[C@@H]1O,"MAPK14 (Homo sapiens, UniProt Q16539)","probe labelling, inhibitor, KiNativ ATP probe MS",native lysate,1 µM,,inhibition,7%
COc1ccccc1-c1n[nH]c2nc(NC3CCN(C(=O)Cc4ccc(F)cc4F)CC3)ncc12,,"bead binding, competition bead pull-down, measured: LINJ.36.7240",Leishmania donovani extract,10 µM,relative to: vehicle,relative abundance,1.07
O=C1NC2(CC2)COc2ncc(F)cc2[C@H]2COCCN2c2ccn3ncc1c3n2,,,"Sprague-Dawley rat, male, serum","oral, 2.5 mg/kg/day, end of recovery, 4-week subacute toxicity",,serum hepatic lipase activity,3.5 ± 0.2 U/L

# For quick reference, copied from above:
SMILES,target or system,test,test system,setting,how to read,endpoint,value
Cc1ccc2c(C(C[N+](=O)[O-])c3cccs3)c(-c3ccccc3)[nH]c2c1 (stereo not drawn),"CNR1 (Homo sapiens, UniProt P21554, Y397F)","G protein activation, agonist, BRET",,,,EC50,70 nM
CC(=O)N[C@@H](CCCNC(=N)N)C(=O)N[C@@H](Cc1ccc(O)cc1)C(=O)N[C@@H](CCCNC(=N)N)C(=O)N[C@@H](CC(C)C)C(=O)N[C@@H](CCCNC(=N)NC(=O)NCCCCN)C(=O)N[C@@H](Cc1ccc(O)cc1)C(N)=O,"NPY4R (Homo sapiens, UniProt P50391)","β-arrestin-1 recruitment, antagonist",HEK293T-ARRB1,together with: 3 nM human pancreatic polypeptide,,Kb,3590 ± 429 nM
